Results from different studies.
Compare with care: the assays were run in different laboratories. Numbers after ± are the reported error.
Organism: Escherichia coli

| Compound | assay | test system | setting | how to read | endpoint | value |
| --- | --- | --- | --- | --- | --- | --- |
| CC(C)C[C@H](NC(=O)[C@@H](N)CCCNC(=N)N)C(=O)N[C@@H](Cc1ccc(O)cc1)C(=O)N[C@@H](CCCNC(=N)N)C(N)=O | bactericidal activity, virtual colony count | ATCC 25922 | 2 h | – | EC50 | 12.1 ± 1.03 µM |
| c1ccc(CN2CCOCCOCCN(CCCCCCCCCCCCCCN3CCOCCOCCN(CCCCCCCCCCCCCCN4CCOCCOCCN(Cc5ccccc5)CCOCCOCC4)CCOCCOCC3)CCOCCOCC2)cc1 | – | tetracycline-resistant | up to 1/2 MIC, outcome: no inhibition | – | growth inhibition | no inhibition |
| N.N.[Cl][Pt+].c1ccc2c(c1)cnc1ccccc12 | bacterial cytological profiling | BL21(DE3) | MIC, 24 h | – | average filament length | 44 µm |
| N=C(N)NCCC[C@@H]1NC(=O)[C@H](CCCNC(=N)N)NC(=O)[C@H](CCCNC(=N)N)NC(=O)[C@H](Cc2ccc3ccccc3c2)NC(=O)[C@H](Cc2c[nH]c3ccccc23)NC(=O)[C@H](Cc2ccc3ccccc3c2)NC(=O)[C@H](CCCNC(=N)N)NC1=O | bacterial killing | ATCC BAA-2452 | MIC | – | time to growth halt | 4 h |
| CCN(CC)CCSc1nnc(C23CC4CC(CC(C4)C2)C3)n1C | – | IFO 3301 | 200 µg/disc, 24 h, 37 °C | – | inhibition zone diameter | < 10 mm |
| O=C(O)[C@@H]1Cc2c([nH]c3ccccc23)[C@@H](c2ccc(Cl)cc2)N1 | – | BL21(DE3) | 250 µM, 18 h | – | growth inhibition | 0% |
| Cc1ccc2ccc3ccc(C)nc3c2n1.Cc1ccc2ccc3ccc(C)nc3c2n1.O.[Cl-].[Cl-].[Cl-].[Yb+3] | bacterial growth | – | – | – | inoculation time | 24 h |
| Cc1cc(O)cc2c1C(=O)c1c(cc3oc(=O)cc(-c4ccccc4)c3c1O)C2=O | – | MTCC 739 | 100 µg/disc | – | inhibition zone diameter | 12 mm |
| COc1ccc(/N=N/C(=S)N2CCN(C)CC2)cc1 | microbial growth | ATCC 8739, ATCC8739 | 24 h | – | IC50 | > 50 µM |
| CC(=O)[O-].O.O.[O-]c1ccc(Br)cc1C=NCCN1CCOCC1.[Zn+2] | – | – | 20 µL of 100 µM per disc | – | inhibition zone diameter | 28 mm |
| FC(F)(F)c1ccc2nc3c4cccnc4c4ncccc4c3nc2c1.[Cl-].[Cl-].[Ru+2].c1ccncc1.c1ccncc1.c1ccncc1.c1ccncc1 | – | – | LED irradiation 470 nm | – | MIC90 | 4 µM |
| c1ccc(CN2CCOCCOCCN(CCCCCCCCN3CCOCCOCCN(CCCCCCCCN4CCOCCOCCN(Cc5ccccc5)CCOCCOCC4)CCOCCOCC3)CCOCCOCC2)cc1 | tetracycline MIC, checkerboard | tetracycline-resistant (pBR322) | 1/2 MIC, added: tetracycline | relative to: MIC alone over combination | fold enhancement | 30 fold |
| CCCCCCC1N=C(N)N=C(N)N1c1ccc(Cl)cc1.Cl (racemic) | broth microdilution | ATCC 25922 | without thymidine | – | MIC90 | > 128 µM |

For quick reference, copied from above:
| Compound | assay | test system | setting | how to read | endpoint | value |
| --- | --- | --- | --- | --- | --- | --- |
| COc1ccc(/N=N/C(=S)N2CCN(C)CC2)cc1 | microbial growth | ATCC 8739, ATCC8739 | 24 h | – | IC50 | > 50 µM |
| N=C(N)NCCC[C@@H]1NC(=O)[C@H](CCCNC(=N)N)NC(=O)[C@H](CCCNC(=N)N)NC(=O)[C@H](Cc2ccc3ccccc3c2)NC(=O)[C@H](Cc2c[nH]c3ccccc23)NC(=O)[C@H](Cc2ccc3ccccc3c2)NC(=O)[C@H](CCCNC(=N)N)NC1=O | bacterial killing | ATCC BAA-2452 | MIC | – | time to growth halt | 4 h |
